Results gathered from unrelated publications.
Cell line: HeLa

Structure (SMILES)	effect on	method	measured	time	with	IC50 [µM]
CC(C=NNC(N)=S)=NNC(N)=S	cell growth or viability	MTT				0.027
C=C1C(=O)O[C@H]2[C@H]1[C@H](OC(=O)[C@@]1(C)O[C@H]1C)[C@@H](OC(C)=O)/C(C(=O)OC)=C\CC[C@@]1(C)O[C@H]21	cell growth or viability			48 h		6.55
COc1cccc2c1C(=O)c1c(O)c3c(c(O)c1C2=O)C[C@@](O)(C(=O)CO)C[C@@H]3O[C@H]1C[C@H](N)[C@H](O)[C@H](C)O1	cell growth or viability	MTT		72 h		0.12
CO[C@@]12[C@H](COC(N)=O)C3=C(C(=O)C(C)=C(N)C3=O)N1C[C@@H]1N[C@@H]12	cell growth or viability			48 h		1.44
CCOP(=O)(OCC)[C@@H]1C[C@@H](Cn2c(=O)n(C(=O)c3ccc(F)cc3)c(=O)c3ccccc32)ON1C (relative stereo)	cell growth or viability			96 h		> 250
CCOC(=O)c1[nH]cc2c1NC1=C(C(=O)CCC1)[C@H]2c1cccc(Oc2nc3ccccc3[nH]2)c1	cell growth or viability	ATP luminescence		72 h		< 0.01
CC(=O)O[C@H]1C(=O)[C@@]2(C)[C@H]([C@H](OC(=O)c3ccccc3)[C@]3(O)C[C@H](OC(=O)[C@H](O)[C@@H](NC(=O)c4ccccc4)c4ccccc4)C(C)=C1C3(C)C)[C@]1(OC(C)=O)CO[C@@H]1C[C@@H]2O	cell growth or viability			48 h		0.0067
CCC(O)CC(=O)O[C@@H]1C[C@@H]2[C@@]3(C)CCC[C@](C)(CC)[C@@H]3CC[C@@]2(C)[C@@H]2C[C@@H](O)C3=C(C(=O)O[C@H]3C)[C@@]12C (stereo partly shown)	cell growth or viability	CCK-8		24 h		≤ 25
COc1cc([C@@H]2c3cc4c(cc3[C@@H](O[C@@H]3O[C@@H]5CO[C@@H](C)O[C@H]5[C@H](O)[C@H]3O)[C@H]3COC(=O)[C@H]23)OCO4)cc(OC)c1O	cell growth or viability			48 h		3.2
O=C1c2c(O)cc(O)cc2OC(c2ccc(O)c(O)c2)C1O (stereo not shown)	cell growth or viability	MTT		72 h		195
C=C1C(=O)O[C@H]2[C@H]1CC/C(C)=C/CC[C@@]1(C)O[C@@H]21	cell growth or viability			24 h		24.3
O=C(Cn1cc(COc2ncnc3[nH]cnc23)nn1)NCc1ccc(Cl)cc1	cell growth or viability	MTT				> 100
CC(C=NN=C(N)[S-])=NN=C(N)[S-].NCc1ccccc1.NCc1ccccc1.O=[N+]([O-])[O-].[Co+3]	cell growth or viability	MTT				~8.6
O=c1c(O)c(-c2ccc(O)c(O)c2)oc2cc(O)ccc12	cell growth or viability	MTT		72 h		60.5
O=C1NCCc2c(OCCCCN3CCCCC3)cccc21	H1R promoter reporter gene				PMA 100 nM for 10 h	59
O=C(Cn1cc(COc2ncnc3[nH]cnc23)nn1)Nc1ccc(F)c(Cl)c1	cell growth or viability	MTT				8.85
C=C1C(=O)O[C@@H]2/C=C(\C)CC/C=C(/C(=O)OC)[C@H](OC(C)=O)[C@@H](OC(=O)[C@]3(C)O[C@@H]3C)[C@@H]12	cell growth or viability			48 h		5.99
CC(=NN=C(N)[S-])C(C)=NN=C(N)[S-].NCc1ccccc1.NCc1ccccc1.O=[N+]([O-])[O-].[Co+3]	cell growth or viability	MTT				> 500
C=CC(=O)Nc1cccc(C(=O)Nc2ccc(Nc3nccc(-c4cccnc4)n3)cc2)c1	c-Jun phosphorylation	TR-FRET	phospho-c-Jun Ser73			~0.1

Some of these lines once more:
Structure (SMILES)	effect on	method	measured	time	with	IC50 [µM]
O=C1NCCc2c(OCCCCN3CCCCC3)cccc21	H1R promoter reporter gene				PMA 100 nM for 10 h	59
O=C(Cn1cc(COc2ncnc3[nH]cnc23)nn1)Nc1ccc(F)c(Cl)c1	cell growth or viability	MTT				8.85
